# Measurements from different studies.
# ± marks the error that the study gave.
SMILES,cell line,test,conditions,IC50 [µM]
CC(C)C12OC1C1OC13C1(C)CCC4=C(COC4=O)C1CC1OC13C2OC(=O)CCCOC1OC(CO)C(O)C(O)C1O (stereo not shown),DLD-1,cell growth,1% oxygen hypoxia,1.3
CC[C@H](C)[C@H](NC(=O)CNC(=O)[C@H](C)NC(=O)[C@@H]1CCCN1C(=O)CNC(=O)[C@H](C)NC(=O)[C@H](CCC(=O)O)NC(=O)[C@@H]1CCCN1C(=O)[C@H](CC(=O)O)NC(=O)[C@H](C)NC(=O)[C@H](CCC(=O)O)NC(=O)[C@H](C)NC(=O)[C@H](CC(=O)O)NC(=O)[C@H](C)NC(=O)[C@H](CCC(=O)O)NC(=O)[C@H](C)NC(=O)[C@H](CCC(=O)O)NC(=O)[C@@H]1CCCN1C(=O)[C@@H](N)CCC(=O)O)C(=O)NCC(=O)N[C@@H](C)C(=O)N[C@H](C(=O)N[C@@H](CC(C)C)C(=O)N[C@@H](CCCCN)C(=O)N[C@H](C(=O)N[C@@H](CC(C)C)C(=O)N[C@H](C(=O)N[C@H](C(=O)NCC(=O)N[C@@H](CC(C)C)C(=O)N1CCC[C@H]1C(=O)N[C@@H](C)C(=O)N[C@@H](CC(C)C)C(=O)N[C@H](C(=O)N[C@@H](CO)C(=O)N[C@@H](Cc1c[nH]c2ccccc12)C(=O)N[C@H](C(=O)N[C@@H](CCCCN)C(=O)N[C@@H](CCCNC(=N)N)C(=O)N[C@@H](CCCCN)C(=O)N[C@@H](CCCNC(=N)N)C(=O)N[C@@H](CCC(N)=O)C(=O)N[C@@H](CCC(N)=O)C(N)=O)[C@@H](C)CC)[C@@H](C)CC)[C@@H](C)O)[C@@H](C)O)C(C)C)C(C)C,MCF7 vector control (FAP-negative),"cell viability, MTT",72 h,33.1 ± 2.3
Cc1cc(C)c(N2CCN(c3c(C)cc(C)cc3C)C2=[Se])c(C)c1.[Cl][Au],PSN1,"cell growth or viability, MTT",72 h,2.8
C[C@@H](N)[C@H](O)CCCCCCCC(=O)CCCCCCCCCCCCCC[C@@H](O[C@@H]1O[C@H](CO)[C@@H](O)[C@H](O)[C@H]1O)[C@@H](N)CO,HCC70,"cell growth or viability, resazurin",96 h,8.75
N=C(N)NCCC[C@H](NC(=O)[C@@H]1CSSC[C@H](NC(=O)[C@H](Cc2ccc3ccccc3c2)NC(=O)[C@H](CCCNC(=N)N)NC(=O)[C@H](CCCNC(=N)N)NC(=O)c2ccc(F)cc2)C(=O)N[C@@H](Cc2ccc(O)cc2)C(=O)N[C@@H](CCCNC(N)=O)C(=O)N[C@@H](CCCCNC(=O)CN2CCN(CC(=O)O)CCN(CC(=O)O)CCN(CC(=O)O)CC2)C(=O)N[C@H](CCCCNC(=O)CN2CCN(CC(=O)O)CCN(CC(=O)O)CCN(CC(=O)O)CC2)C(=O)N2CCC[C@H]2C(=O)N[C@@H](Cc2ccc(O)cc2)C(=O)N[C@@H](CCCNC(=N)N)C(=O)N[C@@H](CCCNC(N)=O)C(=O)N1)C(N)=O [copper-64 labelled],human red blood cells,"binding, homologous displacement","45 min, room temperature",0.0558
CNC(=O)c1cc(Oc2ccc(NC(=O)c3cc(-c4ccc(OC(=O)CCC(=O)OC5OC6OC7(C)CCC8C(C)CCC(C5C)C68OO7)cc4)ccn3)cc2)ccn1 (stereo not shown),Huh-7,"cell growth or viability, MTT",72 h,12.2
[Cl][Au].[Se]=c1n(C2CCCCC2)ccn1C1CCCCC1,PSN1,"cell growth or viability, MTT",72 h,2.7
COc1cccc2c1C(=O)c1c(O)c3c(c(O)c1C2=O)CC(O)(C(=O)CO)CC3OC1CC(NC(=O)OC2C=CCCC(C)(C(=O)NCC(=O)O)CC2)C(O)C(C)O1 (stereo not shown),MC-38,"cell growth or viability, MTT",24 h,1.9
C[C@H]1C(OCCCCCCCCCCCC[P+](c2ccccc2)(c2ccccc2)c2ccccc2)O[C@@H]2O[C@@]3(C)CCC4[C@H](C)CCC1[C@]42OO3 (stereo partly shown),OVCAR-3,"cell growth or viability, MTT",72 h,0.101
CCc1ccc(C(c2c(C)nn(-c3ccccc3)c2O)c2c(C)nn(-c3ccccc3)c2O)cc1,Ishikawa,"cell growth or viability, MTT",48 h,> 40

# For quick reference, copied from above:
SMILES,cell line,test,conditions,IC50 [µM]
COc1cccc2c1C(=O)c1c(O)c3c(c(O)c1C2=O)CC(O)(C(=O)CO)CC3OC1CC(NC(=O)OC2C=CCCC(C)(C(=O)NCC(=O)O)CC2)C(O)C(C)O1 (stereo not shown),MC-38,"cell growth or viability, MTT",24 h,1.9
